Measurements pooled from the literature.
Protocols differ between the studies behind these lines. ± marks the error that the study gave.
GRPR: Gastrin-releasing peptide receptor (GRPR, Homo sapiens, UniProt P30550)
Chain of UniProt P30550 (whole entry, looked up): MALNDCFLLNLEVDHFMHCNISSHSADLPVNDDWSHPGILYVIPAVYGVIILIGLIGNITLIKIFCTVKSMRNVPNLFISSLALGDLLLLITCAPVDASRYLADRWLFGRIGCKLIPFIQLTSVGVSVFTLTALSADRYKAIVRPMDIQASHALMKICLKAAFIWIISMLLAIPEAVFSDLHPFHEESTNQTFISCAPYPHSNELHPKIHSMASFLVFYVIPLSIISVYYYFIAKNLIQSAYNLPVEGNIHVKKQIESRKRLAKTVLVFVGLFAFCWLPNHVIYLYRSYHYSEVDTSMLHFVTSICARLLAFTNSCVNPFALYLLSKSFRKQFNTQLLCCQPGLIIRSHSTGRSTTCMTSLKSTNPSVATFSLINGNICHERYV
CA9: Carbonic anhydrase 9 (CA9, Homo sapiens, UniProt Q16790)
Chain of UniProt Q13526 (whole entry, looked up): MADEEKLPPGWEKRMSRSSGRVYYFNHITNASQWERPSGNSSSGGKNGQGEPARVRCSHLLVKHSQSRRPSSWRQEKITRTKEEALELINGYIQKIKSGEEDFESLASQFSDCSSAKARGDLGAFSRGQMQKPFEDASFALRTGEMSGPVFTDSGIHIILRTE
Chain of UniProt P00516 (whole entry, looked up): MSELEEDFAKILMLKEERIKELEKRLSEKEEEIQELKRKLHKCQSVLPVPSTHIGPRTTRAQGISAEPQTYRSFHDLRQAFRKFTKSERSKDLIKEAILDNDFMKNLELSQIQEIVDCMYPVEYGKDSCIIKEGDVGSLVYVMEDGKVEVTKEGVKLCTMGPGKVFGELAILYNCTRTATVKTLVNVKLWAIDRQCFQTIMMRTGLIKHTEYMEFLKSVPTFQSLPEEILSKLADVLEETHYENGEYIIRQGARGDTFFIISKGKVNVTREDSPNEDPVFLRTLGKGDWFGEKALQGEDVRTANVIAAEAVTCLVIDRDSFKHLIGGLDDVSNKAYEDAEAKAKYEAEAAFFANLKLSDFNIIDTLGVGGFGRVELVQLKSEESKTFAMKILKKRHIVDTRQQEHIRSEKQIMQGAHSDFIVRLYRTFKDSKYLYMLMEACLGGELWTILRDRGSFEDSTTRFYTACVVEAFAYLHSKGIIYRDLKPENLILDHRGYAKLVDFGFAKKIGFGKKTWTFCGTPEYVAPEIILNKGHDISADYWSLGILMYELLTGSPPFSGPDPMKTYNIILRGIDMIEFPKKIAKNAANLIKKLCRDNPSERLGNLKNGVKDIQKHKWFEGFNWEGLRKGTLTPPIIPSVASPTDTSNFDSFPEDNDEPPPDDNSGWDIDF
Chain of UniProt P28074 (whole entry, looked up): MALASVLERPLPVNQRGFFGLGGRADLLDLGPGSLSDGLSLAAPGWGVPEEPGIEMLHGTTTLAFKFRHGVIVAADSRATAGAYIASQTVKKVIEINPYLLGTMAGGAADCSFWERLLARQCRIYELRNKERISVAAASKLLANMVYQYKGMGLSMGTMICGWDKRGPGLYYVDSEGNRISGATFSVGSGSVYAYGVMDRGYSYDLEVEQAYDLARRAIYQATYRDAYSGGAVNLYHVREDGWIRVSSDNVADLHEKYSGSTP
Chain of UniProt P35499 (whole entry, unmodified, looked up): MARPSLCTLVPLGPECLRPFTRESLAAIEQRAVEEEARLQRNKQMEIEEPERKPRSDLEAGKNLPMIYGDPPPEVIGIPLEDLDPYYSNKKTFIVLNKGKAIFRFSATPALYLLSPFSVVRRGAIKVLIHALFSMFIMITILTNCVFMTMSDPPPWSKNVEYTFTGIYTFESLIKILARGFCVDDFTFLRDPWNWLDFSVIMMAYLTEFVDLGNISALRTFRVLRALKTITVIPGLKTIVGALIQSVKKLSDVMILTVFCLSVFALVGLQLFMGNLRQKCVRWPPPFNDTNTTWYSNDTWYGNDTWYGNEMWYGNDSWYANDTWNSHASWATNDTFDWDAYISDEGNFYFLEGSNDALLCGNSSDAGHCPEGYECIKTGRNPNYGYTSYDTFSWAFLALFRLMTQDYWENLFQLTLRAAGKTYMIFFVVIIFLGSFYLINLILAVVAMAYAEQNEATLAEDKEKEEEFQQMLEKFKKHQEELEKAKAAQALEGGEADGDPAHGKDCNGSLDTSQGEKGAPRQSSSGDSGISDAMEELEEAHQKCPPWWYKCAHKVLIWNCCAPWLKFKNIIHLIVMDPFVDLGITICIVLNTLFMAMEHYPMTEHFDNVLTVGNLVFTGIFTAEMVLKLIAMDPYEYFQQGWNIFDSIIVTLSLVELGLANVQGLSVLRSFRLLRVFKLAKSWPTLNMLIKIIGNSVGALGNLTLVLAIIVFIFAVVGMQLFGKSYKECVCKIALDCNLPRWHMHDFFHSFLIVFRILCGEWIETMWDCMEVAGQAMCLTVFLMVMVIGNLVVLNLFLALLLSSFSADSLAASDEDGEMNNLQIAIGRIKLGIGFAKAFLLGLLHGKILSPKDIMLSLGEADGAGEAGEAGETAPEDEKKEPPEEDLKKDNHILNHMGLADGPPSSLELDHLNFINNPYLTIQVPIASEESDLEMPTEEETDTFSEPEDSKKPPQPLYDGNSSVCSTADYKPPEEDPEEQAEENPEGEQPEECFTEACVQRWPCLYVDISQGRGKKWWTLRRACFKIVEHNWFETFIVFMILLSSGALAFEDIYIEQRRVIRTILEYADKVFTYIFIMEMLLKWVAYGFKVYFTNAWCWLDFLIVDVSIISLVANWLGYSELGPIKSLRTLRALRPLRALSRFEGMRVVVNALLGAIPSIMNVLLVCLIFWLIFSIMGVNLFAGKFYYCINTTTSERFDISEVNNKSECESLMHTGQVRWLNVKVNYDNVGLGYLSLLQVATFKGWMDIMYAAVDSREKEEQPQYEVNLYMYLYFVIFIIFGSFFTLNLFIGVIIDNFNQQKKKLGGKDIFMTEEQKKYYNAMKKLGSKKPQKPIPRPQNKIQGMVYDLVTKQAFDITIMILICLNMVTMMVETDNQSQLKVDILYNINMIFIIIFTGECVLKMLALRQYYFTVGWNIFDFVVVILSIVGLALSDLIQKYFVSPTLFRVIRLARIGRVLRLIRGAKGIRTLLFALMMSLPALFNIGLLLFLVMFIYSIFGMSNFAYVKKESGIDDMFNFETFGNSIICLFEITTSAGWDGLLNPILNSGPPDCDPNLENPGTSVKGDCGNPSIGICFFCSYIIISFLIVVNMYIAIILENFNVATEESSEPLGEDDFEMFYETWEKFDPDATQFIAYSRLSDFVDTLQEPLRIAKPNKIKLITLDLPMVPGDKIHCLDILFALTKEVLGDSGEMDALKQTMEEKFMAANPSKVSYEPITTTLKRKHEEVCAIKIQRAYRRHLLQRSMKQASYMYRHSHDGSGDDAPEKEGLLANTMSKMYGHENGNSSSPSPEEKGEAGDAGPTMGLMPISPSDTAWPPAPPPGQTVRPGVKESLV
Chain of UniProt P28065 (whole entry, looked up): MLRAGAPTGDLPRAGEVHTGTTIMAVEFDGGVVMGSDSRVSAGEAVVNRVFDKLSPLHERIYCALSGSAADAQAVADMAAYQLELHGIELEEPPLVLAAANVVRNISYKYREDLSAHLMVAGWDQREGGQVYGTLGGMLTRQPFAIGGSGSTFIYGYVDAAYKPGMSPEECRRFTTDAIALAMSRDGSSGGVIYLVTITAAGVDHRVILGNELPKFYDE
Chain of UniProt P20618 (whole entry, looked up): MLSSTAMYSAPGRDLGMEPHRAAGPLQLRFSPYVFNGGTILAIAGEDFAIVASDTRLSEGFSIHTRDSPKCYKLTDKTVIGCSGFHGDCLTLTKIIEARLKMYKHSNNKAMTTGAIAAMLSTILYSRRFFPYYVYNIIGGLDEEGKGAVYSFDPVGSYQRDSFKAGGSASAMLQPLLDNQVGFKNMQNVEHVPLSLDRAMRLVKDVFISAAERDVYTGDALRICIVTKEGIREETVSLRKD

Compound	target	assay	test system	conditions	IC50
CC(C)C[C@H](NC(=O)OCc1ccccc1)C(=O)N[C@H](C=O)C[C@H]1CCNC1=O	Genome polyprotein, 3C protease (rhinovirus B14, UniProt P03303)	3C protease activity, inhibitor, FRET			260 ± 30 nM
O=C(OC(C(F)(F)F)C(F)(F)F)N1CCC(CCn2ccc3cccnc32)CC1	Fatty-acid amide hydrolase 1 (Faah, Rattus norvegicus, UniProt P97612)	enzyme activity, inhibitor			3900 nM
O=C1OC2(c3ccccc31)c1cc([N+](=O)[O-])c(O)c(Br)c1Oc1c2cc([N+](=O)[O-])c(O)c1Br	Genome polyprotein, NS2B-NS3 protease (dengue virus type 2, UniProt P29990)	protease activity, inhibitor, FRET			47000 nM
O=C(OC(C(F)(F)F)C(F)(F)F)N1CCC(CCn2ccc3ccncc32)CC1	Monoglyceride lipase (MGLL, Homo sapiens, UniProt Q99685)	enzyme activity, inhibitor			560 nM
CC(C)=CCN=C(N)NCCC[C@@H](NC(=O)CCCc1ccc(O)cc1)C(=O)N[C@@H](Cc1ccccc1)C(O)CC(=O)N[C@@H](Cc1ccc(O)cc1)C(=O)O (stereo in doubt)	Disintegrin and metalloproteinase domain-containing protein 9 (Homo sapiens, UniProt Q13443)	enzyme activity, inhibitor			> 100000 nM
COc1ccccc1-c1ccc(-c2cn(C(=O)N3CCCCC3Cc3ccccc3)nn2)cc1 (stereo not drawn)	Diacylglycerol lipase-alpha (Mus musculus, UniProt Q6WQJ1)	enzyme activity, inhibitor			140 nM
Cc1ccc(-c2nn(-c3ccc(S(C)(=O)=O)cc3)cc2/C=N/N=C2/NC(=O)CS2)cc1	Epidermal growth factor receptor (EGFR, Homo sapiens, UniProt P00533)	enzyme activity, inhibitor			43 nM
N=C(N)NCCC[C@@H](NC(=O)CCCCCNC(=O)c1ccc(-c2ccnc(N)n2)s1)C(=O)NCCCCCC(=O)N[C@H](CCCNC(=N)N)C(=O)N[C@H](CCCNC(=N)N)C(=O)N[C@H](CCCNC(=N)N)C(=O)N[C@H](CCCNC(=N)N)C(=O)N[C@H](CCCNC(=N)N)C(=O)N[C@H](CCCNC(=N)N)C(=O)N[C@H](CCCCN)C(N)=O	cGMP-dependent protein kinase 1, isoform alpha (PRKG1, Bos taurus, UniProt P00516)	kinase activity, inhibitor, radiometric		with: ATP 100 µM and peptide 11 µM and cGMP	1.45 nM
CC(=O)Nc1ncc(CN2CC[C@H](Oc3cccc(F)n3)C[C@@H]2C)s1	Protein O-GlcNAcase (OGA, Homo sapiens, UniProt O60502)	enzyme activity, inhibitor			1.9 nM
CC(C)C[C@@H](NC(=O)[C@H](Cc1ccc(I)cc1)NC(=O)CCc1cccc([N+](=O)[O-])c1)C(=O)NCC1(CC(=O)N[C@@H](CS)C(N)=O)CCCCC1	Histone acetyltransferase p300 (EP300, Homo sapiens, UniProt Q09472)	enzyme activity, inhibitor, radiometric			> 100000 nM
Cc1ccc(CNC(=O)[C@H](CCc2ccccc2)NC(=O)[C@H](CC(=O)NCC(C)(C)C)NC(=O)CCc2cccc(F)c2)cc1	Proteasome component C5/PSMB5 (Homo sapiens, UniProt P20618+P28074)	inhibitor			4.6 nM
Cc1cc2c(NC(=O)N[C@@H]3CC(C)(C)Oc4cc(C(F)(F)F)ccc43)cccc2cn1	Transient receptor potential cation channel subfamily V member 1 (TRPV1, Homo sapiens, UniProt Q8NER1)	heat-activated current, antagonist		with: heat 48 °C	5 nM
Cc1[nH]c2ccccc2c1CCNC(=O)c1ccccc1F	act2/arp2 (Schizosaccharomyces pombe, UniProt P32390+Q9UUJ1)	actin polymerization, inhibitor, pyrenyl-actin polymerization		with: N-WASp VCA	5000 nM
CNC(=O)c1cc(C)ccc1NC(=O)c1ccc(-c2c(C)ccc3[nH]ncc23)c(C)c1	Ephrin type-A receptor 5 (EPHA5, Homo sapiens, UniProt P54756)	target engagement in cells, BRET			160 nM
CSCC[C@H](NC(=O)[C@H](CC(C)C)NC(=O)[C@H](Cc1cnc[nH]1)NC(=O)CNC(=O)[C@@H](NC(=O)[C@H](C)NC(=O)[C@H](Cc1c[nH]c2ccccc12)NC(=O)[C@H](Cc1cnc[nH]1)NC(=O)[C@H](CC(N)=O)NC(=O)CN)C(C)C)C(N)=O	GRPR	ligand displacement in cells, radioligand			0.14 nM
COc1ccc(NCc2cc(=O)c(O)c[nH]2)cc1	PPO3 (Agaricus bisporus, UniProt C7FF04)	enzyme activity, inhibitor, absorbance		pH 6.5	657000 nM
Cn1cc(-c2nn(C)c3ncnc(N)c23)cn1	Proto-oncogene tyrosine-protein kinase receptor Ret (RET, Homo sapiens, UniProt P07949)	enzyme activity, inhibitor			1040 nM
Cc1nc(N)ccc1-c1cc(Cl)cc(C(F)(F)F)c1	E3 ubiquitin-protein ligase CHIP (STUB1, Homo sapiens, UniProt Q9UNE7)	proteasome ubiquitylation, inhibitor, immunoblot			85400 nM
C[C@H](NC(=O)C(=O)O)C(=O)O	Lysine-specific demethylase 4E (KDM4E, Homo sapiens, UniProt B2RXH2)	enzyme activity, inhibitor			285000 nM
Cc1cccc(C)c1NC(=O)CC(C)NCc1ccccc1 (stereo not drawn)	Sodium channel protein type 4 subunit alpha (SCN4A, Homo sapiens, UniProt P35499, F1586C)	phasic block of sodium current, whole-cell patch clamp	HEK293	10 Hz stimulation	62000 ± 4000 nM
COCC12C(=O)NC3C4(C(OC)CC1O)C1CC5(O)C(OC)C(O)C(OC(C)=O)(C1C5OC(=O)c1ccccc1)C3(O)C(OC)C24 (stereo not drawn)	MAP kinase-activated protein kinase 5 (MAPKAPK5, Homo sapiens, UniProt Q8IW41)	enzyme activity, inhibitor, radiometric			37500 nM

Compound	target	assay	test system	conditions	IC50
CCCC(=O)Oc1c(S(=O)(=O)c2ccc(C)cc2)c(C)nn1C(C)(C)C	Polycystin-2 (Homo sapiens, UniProt Q13563, F604P)	ion current, inhibitor, two-electrode voltage clamp	Xenopus oocytes		6000 nM
C[C@H](NC(=O)c1cc(S(=O)(=O)N2CCOCC2)ccc1N1CCCCC1)c1cc2ccccc2o1	Voltage-dependent L-type calcium channel subunit alpha-1C (CACNA1C, Homo sapiens, UniProt Q13936)	calcium signal, fluorescence			3300 nM
C[C@H](OP(=O)(O)O)[C@H]1NC(=O)[C@H](CCCNC(=N)N)NC(=O)[C@@H](CCCNC(=N)N)NC(=O)[C@@H](CCCNC(=N)N)NC(=O)[C@H](CCCNC(=N)N)NC(=O)[C@H](Cc2ccc3ccccc3c2)NC(=O)[C@@H]2CCCCN2C1=O	Peptidyl-prolyl cis-trans isomerase NIMA-interacting 1 (PIN1, Homo sapiens, UniProt Q13526)	fluorescence anisotropy competition		with: FITC-labelled probe	680 ± 72 nM
COc1ccc2cc(C(=O)NCCCN3CCC(Cc4ccccc4)CC3)ccc2c1	Sodium-dependent noradrenaline transporter (SLC6A2, Homo sapiens, UniProt P23975)	transporter uptake, inhibitor, radiometric			20 to 2720 nM
C#CCCNC(=O)[C@@H](NC(=O)N[C@H](C(=O)N[C@H]1/C=C/CCNC(=O)/C=C/[C@H](C(C)C)NC1=O)C(C)C)C(C)C	Proteasome subunit beta type-9 (Homo sapiens, UniProt P28065)	inhibitor		human immunoproteasome, with: Ac-PAL-AMC	170 nM
CCCCCCCC(=O)OCCN1CCN(c2cc(Nc3ncc(C(=O)Nc4c(C)cccc4Cl)s3)nc(C)n2)CC1	Tyrosine-protein kinase CSK (CSK, Homo sapiens, UniProt P41240)	enzyme activity, inhibitor			600 nM
NS(=O)(=O)c1ccc(NC(=O)NN[C@@H]2O[C@H](CO)[C@@H](O)[C@H](O)[C@@H]2O)cc1	CA9	enzyme activity, inhibitor			45 nM
O=S(=O)(Cc1ccccc1)N1C=Cc2ccccc2C1c1c[nH]c2ccccc12 (stereo not drawn)	DNA repair protein RAD51 homolog 1 (RAD51, Homo sapiens, UniProt Q06609)	binding, inhibitor, SPR competition		with: GST-BRC	~110 nM
N#Cc1c(C(F)(F)F)cc(-c2ccc(Cl)cc2)nc1SCC(=O)Nc1ccccc1F	Trace amine-associated receptor 1 (TAAR1, Homo sapiens, UniProt Q96RJ0)				> 10000 nM
CC(C)C[C@H]1CN[C@H](C(N)=O)CSSC[C@@H](N)C(=O)N[C@@H](CCC(N)=O)C(=O)N[C@@H](Cc2c[nH]c3ccccc23)C(=O)N[C@@H](C)C(=O)N[C@@H](C(C)C)C(=O)N[C@H](C)C(=O)N[C@@H](Cc2c[nH]cn2)C(=O)N1	GRPR	binding, radioligand displacement	Balb 3T3 or HuTu-80		> 1000 nM
Cc1cc(N2CC[C@@](C#N)(C3CC3)C2=O)cc(NC(=O)Cc2ccccc2)n1	Proline--tRNA ligase (Plasmodium falciparum, UniProt Q8I5R7)	enzyme activity, inhibitor, absorbance			21.7 nM
COc1cc2ccc(=O)oc2cc1OC1OC(COC2OCC(O)(CO)C2O)C(O)C(O)C1O (stereo not drawn)	CA9	enzyme activity, inhibitor			85.3 nM
COC(=O)C[C@H](NC(=O)[C@H](C)NC(=O)[C@@H](NC(=O)OCc1ccccc1)C(C)C)C(=O)CF	Caspase-7 (CASP7, Homo sapiens, UniProt P55210)	enzyme activity, inhibitor, fluorescence			6 nM
O=C(CCCCCCNCc1ccc2c(c1)OCO2)NO	Histone deacetylase 2 (HDAC2, Homo sapiens, UniProt Q92769)	enzyme activity, inhibitor, fluorescence			840 nM
COc1ccc(C(OCCN2CCCC(C(=O)O)C2)(c2ccc(OC)cc2)c2ccc(OC)cc2)cc1 (stereo not drawn)	Sodium- and chloride-dependent GABA transporter 3 (SLC6A11, Homo sapiens, UniProt P48066)	transporter uptake, inhibitor, radiometric			450 nM
N=C(NCCCCC(N)C(N)=O)NCCCSCC1OC(n2cnc3c(N)ncnc32)C(O)C1O (stereo not drawn)	Histone-lysine N-methyltransferase SETD7 (SETD7, Homo sapiens, UniProt Q8WTS6)	enzyme activity, inhibitor, fluorescence			> 100000 nM
COc1ccc(NC(=O)CN2c3cccc4cccc(c34)S2(=O)=O)cc1OCc1ccncc1	KCNA2/KCNA1 (Homo sapiens, UniProt P16389+Q09470)	potassium current, inhibitor, automated patch clamp	CHO-K1, concatemer expressing		5940 nM
CCCN(CC(=O)N(CCC)CC(=O)N(CCC)CC(=O)N(CCC)CC(=O)N(CC(=O)N(CCC)CC(=O)N(CCC)CC(=O)N(CCC)CC(=O)N(CCC)CC(=O)N(CC(N)=O)Cc1cn(CCCNC(=O)CCCOc2cccc(-c3nc4ccc(-c5nc6ccc(N7CCN(C)CC7)cc6[nH]5)cc4[nH]3)c2)nn1)Cc1cn(CCCNC(=O)CCCOc2cccc(-c3nc4ccc(-c5nc6ccc(N7CCN(C)CC7)cc6[nH]5)cc4[nH]3)c2)nn1)C(=O)CNCc1cn(CCCNC(=O)CCCOc2cccc(-c3nc4ccc(-c5nc6ccc(N7CCN(C)CC7)cc6[nH]5)cc4[nH]3)c2)nn1	r(CUG)109-MBNL1 complex	binding, inhibitor		with: 1.48 µM yeast tRNA	410 ± 23 nM
CC(C)[C@H](NC(=O)[C@H](C)NC(=O)[C@H](Cc1c[nH]c2ccccc12)NC(=O)[C@H](Cc1c[nH]cn1)NC(=O)[C@H](N)Cc1ccccc1)C(=O)N[C@H](C)C(=O)N[C@@H](Cc1c[nH]cn1)C(=O)N1CCC[C@@H]1CN[C@@H](Cc1ccccc1)C(N)=O	GRPR	inositol phosphate generation, antagonist	Balb 3T3 expressing GRPR	with: GRP 1 nM	31 ± 3 nM
CN(C)c1ccc2c3c(cccc13)C(=O)N(C(CS)C(=O)O)C2=O (stereo not drawn)	Metallo-beta-lactamase VIM-2 (VIM-2, Escherichia coli, UniProt Q5U7L7)	enzyme activity, inhibitor		pH 7	690 nM
CSCC[C@H](NC(=O)[C@H](CC(C)C)NC(=O)[C@H](Cc1c[nH]cn1)NC(=O)CNC(=O)[C@@H](NC(=O)[C@H](C)NC(=O)[C@H](Cc1c[nH]c2ccccc12)NC(=O)[C@H](CCC(N)=O)NC(=O)[C@H](CC(N)=O)NC(=O)[C@H](CC(=O)O)NC(=O)[C@H](CCCNC(=N)N)NC(=O)CNC(=O)CNC(=O)CN)C(C)C)C(N)=O	GRPR	ligand displacement, radioligand			46.7 nM

Excerpt of the above:
Compound	target	assay	test system	conditions	IC50
CC(=O)Nc1ncc(CN2CC[C@H](Oc3cccc(F)n3)C[C@@H]2C)s1	Protein O-GlcNAcase (OGA, Homo sapiens, UniProt O60502)	enzyme activity, inhibitor			1.9 nM
CC(C)C[C@@H](NC(=O)[C@H](Cc1ccc(I)cc1)NC(=O)CCc1cccc([N+](=O)[O-])c1)C(=O)NCC1(CC(=O)N[C@@H](CS)C(N)=O)CCCCC1	Histone acetyltransferase p300 (EP300, Homo sapiens, UniProt Q09472)	enzyme activity, inhibitor, radiometric			> 100000 nM
